Assay results pooled from the literature.
Each line is one published result; not all experiments were run side by side. “And” joins repeats or separate records; there may be more than shown.
MTNR1B: Melatonin receptor type 1B (MTNR1B, Homo sapiens, UniProt P49286)
MTNR1A: Melatonin receptor type 1A (MTNR1A, Homo sapiens, UniProt P48039)
HTR1F: 5-hydroxytryptamine receptor 1F (HTR1F, Homo sapiens, UniProt P30939)
AVPR2: Vasopressin V2 receptor (AVPR2, Homo sapiens, UniProt P30518)

SMILES = CCC(=O)NC1Cc2ccccc2C(c2ccccc2)C1 (stereo not shown); target = MTNR1B; effect on = β-arrestin recruitment; mode = agonist; EC50 = 0.759 µM
SMILES = COC(=O)c1sc(N(C)Cc2cnccc2C)nc1Cl; target = MTNR1A; effect on = cAMP; mode = agonist; method = luciferase; EC50 = 0.0231 µM
SMILES = CCCCC/C=C\C/C=C\C/C=C\Cc1ccccc1CCCC(=O)OC(CO)CO; target = Cannabinoid receptor 2 (CNR2, Homo sapiens, UniProt P34972); effect on = cAMP; mode = agonist; EC50 = 0.643 µM
SMILES = COc1cc(C=CC(=O)C=Cc2cc(OC)c(OC)c(OC)c2)cc(OC)c1OC; target = Sterol carrier protein 2 (Aedes aegypti, UniProt Q86PR3); effect on = ligand displacement; method = fluorescence; EC50 = 0.65 µM
SMILES = COc1ccc(CN(C)C(=O)c2ccnc(OC(F)F)c2)cc1; target = MTNR1A; effect on = cAMP; mode = agonist; method = luciferase; EC50 = 0.00973 µM
SMILES = CN(C)c1ncnc2c1ncn2[C@@H]1O[C@H](CO)[C@@H](O)[C@H]1O; target = Adenosine receptor A3 (ADORA3, Homo sapiens, UniProt P0DMS8, I253N/V169N); effect on = G protein activation; mode = agonist; EC50 = 19 µM
SMILES = O=C1c2ccccc2S(=O)(=O)N1CCCCN1CCN(c2ncccn2)CC1; target = HTR1F; effect on = G protein activation; mode = agonist; method = BRET; EC50 = 0.726 µM
SMILES = CC(C)C[C@H](NC(=O)[C@@H](N)[C@@H](C)O)C(=O)N[C@@H](CCC(N)=O)C(=O)N1CCC[C@H]1C(=O)N1CCC[C@H]1C(=O)N[C@@H](C)C(=O)N[C@@H](CO)C(=O)N[C@@H](CO)C(=O)N[C@@H](CCCNC(=N)N)C(=O)N[C@H](CCCNC(=N)N)C(=O)N[C@@H](CCCNC(=N)N)C(=O)N[C@@H](Cc1c[nH]cn1)C(=O)N[C@@H](Cc1ccccc1)C(=O)N[C@@H](Cc1c[nH]cn1)C(=O)N[C@@H](Cc1c[nH]cn1)C(=O)N[C@@H](C)C(=O)N[C@@H](CC(C)C)C(=O)N1CCC[C@H]1C(=O)N1CCC[C@H]1C(=O)N[C@H](C)C(=O)N[C@@H](CCCNC(=N)N)C(=O)O; target = C3a anaphylatoxin chemotactic receptor (C3AR1, Homo sapiens, UniProt Q16581); effect on = G protein activation; mode = agonist; method = BRET; EC50 = 0.00715 µM
SMILES = O=c1cc(NCCc2c[nH]c3ccccc23)[nH]c(=O)[nH]1; target = G-protein coupled receptor 84 (GPR84, Homo sapiens, UniProt Q9NQS5); effect on = cAMP; mode = agonist; EC50 = 1.39 µM
SMILES = COc1ccc2[nH]cc(CCNC(C)=O)c2c1I; target = MTNR1B; effect on = GTPγS binding; mode = agonist; method = radiometric; setting = cell membranes; EC50 = 0.0105 µM
SMILES = Cc1ccc(Sc2ccccc2N2CCNCC2)c(C)c1; target = HTR1F; effect on = G protein activation; mode = agonist; method = BRET; EC50 = 0.603 µM
SMILES = CC1=NN(/C(=N\c2ccccn2)Nc2nnc(C)s2)C(c2ccc(C)cc2)S1 (stereo not shown); target = AVPR2; effect on = cAMP; mode = positive allosteric modulator; EC50 = > 50 µM
SMILES = CN1CCN(C2=Nc3ccccc3Cc3ccccc32)CC1; target = HTR1F; effect on = G protein activation; mode = agonist; method = BRET; EC50 = 1.08 µM
SMILES = Clc1ccc(CNc2cccc(-c3nnc[nH]3)c2)cc1; target = MTNR1A; effect on = cAMP; mode = agonist; method = luciferase; EC50 = 0.00347 µM
SMILES = [Ca]; target = KCNN4/CALM1 (Homo sapiens, UniProt O15554+P0DP23); effect on = ion current; mode = agonist; method = patch clamp; EC50 = 0.43 µM
SMILES = COc1ccc2c(c1)N(Cc1ccc(C(N)=O)cc1)CCO2; target = MTNR1A; effect on = cAMP; mode = agonist; method = luciferase; EC50 = 0.000249 µM
SMILES = CC1=NN(/C(=N\c2ccccc2)Nc2nnc(C)s2)C(c2ccc(C)cc2)S1 (stereo not shown); target = AVPR2; effect on = cAMP; mode = positive allosteric modulator; EC50 = > 50 µM
SMILES = COc1cc(Br)c(Cn2ccn3c(=O)cc(C)nc23)cc1OC; target = MTNR1A; effect on = cAMP; mode = agonist; method = luciferase; EC50 = 0.153 µM
SMILES = C[C@]12CCC(=O)C=C1CC[C@@H]1[C@@H]2[C@@H](O)C[C@@]2(C)[C@H]1CC[C@]2(O)C(=O)CO; target = Mineralocorticoid receptor (NR3C2, Homo sapiens, UniProt P08235); effect on = reporter gene; mode = agonist; method = luciferase; EC50 = 0.0194 µM and ~0.02 µM and 0.02 µM

A few entries again:
SMILES = COc1ccc(CN(C)C(=O)c2ccnc(OC(F)F)c2)cc1; target = MTNR1A; effect on = cAMP; mode = agonist; method = luciferase; EC50 = 0.00973 µM
SMILES = CC(C)C[C@H](NC(=O)[C@@H](N)[C@@H](C)O)C(=O)N[C@@H](CCC(N)=O)C(=O)N1CCC[C@H]1C(=O)N1CCC[C@H]1C(=O)N[C@@H](C)C(=O)N[C@@H](CO)C(=O)N[C@@H](CO)C(=O)N[C@@H](CCCNC(=N)N)C(=O)N[C@H](CCCNC(=N)N)C(=O)N[C@@H](CCCNC(=N)N)C(=O)N[C@@H](Cc1c[nH]cn1)C(=O)N[C@@H](Cc1ccccc1)C(=O)N[C@@H](Cc1c[nH]cn1)C(=O)N[C@@H](Cc1c[nH]cn1)C(=O)N[C@@H](C)C(=O)N[C@@H](CC(C)C)C(=O)N1CCC[C@H]1C(=O)N1CCC[C@H]1C(=O)N[C@H](C)C(=O)N[C@@H](CCCNC(=N)N)C(=O)O; target = C3a anaphylatoxin chemotactic receptor (C3AR1, Homo sapiens, UniProt Q16581); effect on = G protein activation; mode = agonist; method = BRET; EC50 = 0.00715 µM
SMILES = COc1cc(Br)c(Cn2ccn3c(=O)cc(C)nc23)cc1OC; target = MTNR1A; effect on = cAMP; mode = agonist; method = luciferase; EC50 = 0.153 µM
